Measured values from different studies.
Protocols differ between the studies behind these lines. Values joined by “and” are separate records of one study, mostly repeats; a detail may differ. Numbers after ± are the reported error.
F2: Prothrombin (F2, Homo sapiens, UniProt P00734)
SETDB1 triple Tudor domain: Histone-lysine N-methyltransferase SETDB1, triple Tudor domain (SETDB1, Homo sapiens, UniProt Q15047)
HTR1B: 5-hydroxytryptamine receptor 1B (HTR1B, Homo sapiens, UniProt P28222)
UniProt P28222, sequence (whole entry, looked up): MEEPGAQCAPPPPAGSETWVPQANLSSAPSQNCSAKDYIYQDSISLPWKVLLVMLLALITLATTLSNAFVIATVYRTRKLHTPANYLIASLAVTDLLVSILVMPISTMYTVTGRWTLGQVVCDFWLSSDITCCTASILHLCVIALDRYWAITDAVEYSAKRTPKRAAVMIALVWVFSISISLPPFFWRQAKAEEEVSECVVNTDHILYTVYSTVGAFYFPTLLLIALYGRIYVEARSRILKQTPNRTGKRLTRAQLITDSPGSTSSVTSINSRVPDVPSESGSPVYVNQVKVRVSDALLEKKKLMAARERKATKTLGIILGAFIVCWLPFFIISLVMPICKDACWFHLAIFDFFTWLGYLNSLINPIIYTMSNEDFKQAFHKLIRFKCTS
AMY2: Pancreatic alpha-amylase (AMY2, Sus scrofa, UniProt P00690)
UniProt P00690, sequence (whole entry, looked up): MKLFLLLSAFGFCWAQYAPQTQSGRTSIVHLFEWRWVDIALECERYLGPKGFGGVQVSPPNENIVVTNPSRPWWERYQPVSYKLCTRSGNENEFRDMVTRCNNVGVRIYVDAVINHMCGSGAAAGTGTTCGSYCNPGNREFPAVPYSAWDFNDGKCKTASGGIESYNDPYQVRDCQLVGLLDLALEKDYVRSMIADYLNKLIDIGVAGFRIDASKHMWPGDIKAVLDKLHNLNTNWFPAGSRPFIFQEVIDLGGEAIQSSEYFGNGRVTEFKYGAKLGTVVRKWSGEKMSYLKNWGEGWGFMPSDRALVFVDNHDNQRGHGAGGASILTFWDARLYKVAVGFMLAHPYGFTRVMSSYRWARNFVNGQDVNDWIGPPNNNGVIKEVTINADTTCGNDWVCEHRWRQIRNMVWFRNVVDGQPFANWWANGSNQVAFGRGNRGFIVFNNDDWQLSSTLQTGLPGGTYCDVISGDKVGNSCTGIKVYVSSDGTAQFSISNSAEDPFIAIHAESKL
SRPK3: SRSF protein kinase 3 (SRPK3, Homo sapiens, UniProt Q9UPE1)
UniProt Q9UPE1, sequence (whole entry, looked up): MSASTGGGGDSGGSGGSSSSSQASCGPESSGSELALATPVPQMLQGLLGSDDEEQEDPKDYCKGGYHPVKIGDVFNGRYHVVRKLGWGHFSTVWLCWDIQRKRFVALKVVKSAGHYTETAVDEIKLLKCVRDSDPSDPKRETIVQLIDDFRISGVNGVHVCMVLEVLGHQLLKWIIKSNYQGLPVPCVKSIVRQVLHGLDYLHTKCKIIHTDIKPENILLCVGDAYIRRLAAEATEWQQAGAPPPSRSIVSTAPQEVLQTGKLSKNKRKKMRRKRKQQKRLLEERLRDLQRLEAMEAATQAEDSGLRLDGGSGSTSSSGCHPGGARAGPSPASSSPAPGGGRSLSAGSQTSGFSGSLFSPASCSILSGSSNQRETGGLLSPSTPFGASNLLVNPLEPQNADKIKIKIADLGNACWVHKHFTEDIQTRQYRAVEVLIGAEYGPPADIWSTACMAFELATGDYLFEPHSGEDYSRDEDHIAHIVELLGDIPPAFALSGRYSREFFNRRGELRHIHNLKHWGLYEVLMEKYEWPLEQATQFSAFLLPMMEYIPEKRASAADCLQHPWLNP
SIRT3: NAD-dependent protein deacetylase sirtuin-3, mitochondrial (SIRT3, Homo sapiens, UniProt Q9NTG7)
UniProt Q9NTG7, sequence (whole entry, looked up): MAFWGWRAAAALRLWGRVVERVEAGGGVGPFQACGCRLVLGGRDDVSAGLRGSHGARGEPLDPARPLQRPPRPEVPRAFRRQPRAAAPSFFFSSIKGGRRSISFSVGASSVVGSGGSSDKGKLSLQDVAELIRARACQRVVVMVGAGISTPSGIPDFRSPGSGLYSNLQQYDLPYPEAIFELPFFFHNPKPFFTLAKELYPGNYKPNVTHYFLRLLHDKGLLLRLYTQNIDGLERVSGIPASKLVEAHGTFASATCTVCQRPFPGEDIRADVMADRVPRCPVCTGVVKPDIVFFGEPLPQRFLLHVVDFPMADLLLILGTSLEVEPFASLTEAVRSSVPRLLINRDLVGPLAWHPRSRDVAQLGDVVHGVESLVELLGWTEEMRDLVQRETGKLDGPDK
SIRT1: NAD-dependent protein deacetylase sirtuin-1 (SIRT1, Homo sapiens, UniProt Q96EB6)
UniProt Q96EB6, sequence (whole entry, looked up): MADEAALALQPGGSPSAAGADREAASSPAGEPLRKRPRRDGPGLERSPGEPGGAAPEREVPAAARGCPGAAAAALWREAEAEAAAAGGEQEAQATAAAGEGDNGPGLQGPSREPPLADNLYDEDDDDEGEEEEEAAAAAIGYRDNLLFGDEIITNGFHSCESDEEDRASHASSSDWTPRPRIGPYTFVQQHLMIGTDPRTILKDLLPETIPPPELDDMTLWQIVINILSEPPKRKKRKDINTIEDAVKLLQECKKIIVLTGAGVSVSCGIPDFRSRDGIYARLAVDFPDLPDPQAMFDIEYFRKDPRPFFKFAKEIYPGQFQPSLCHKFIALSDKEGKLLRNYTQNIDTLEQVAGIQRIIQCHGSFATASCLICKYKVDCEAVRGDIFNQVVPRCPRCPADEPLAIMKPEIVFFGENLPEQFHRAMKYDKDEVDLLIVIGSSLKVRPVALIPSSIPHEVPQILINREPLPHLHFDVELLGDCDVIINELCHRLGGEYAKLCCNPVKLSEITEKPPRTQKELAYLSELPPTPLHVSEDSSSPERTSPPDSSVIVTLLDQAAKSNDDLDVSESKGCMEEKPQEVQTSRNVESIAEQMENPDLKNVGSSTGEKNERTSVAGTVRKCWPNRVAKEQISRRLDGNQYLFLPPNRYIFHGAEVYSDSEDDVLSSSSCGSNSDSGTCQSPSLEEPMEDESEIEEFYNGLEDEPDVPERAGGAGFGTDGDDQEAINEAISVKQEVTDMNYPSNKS
UniProt P61073, sequence (whole entry, looked up): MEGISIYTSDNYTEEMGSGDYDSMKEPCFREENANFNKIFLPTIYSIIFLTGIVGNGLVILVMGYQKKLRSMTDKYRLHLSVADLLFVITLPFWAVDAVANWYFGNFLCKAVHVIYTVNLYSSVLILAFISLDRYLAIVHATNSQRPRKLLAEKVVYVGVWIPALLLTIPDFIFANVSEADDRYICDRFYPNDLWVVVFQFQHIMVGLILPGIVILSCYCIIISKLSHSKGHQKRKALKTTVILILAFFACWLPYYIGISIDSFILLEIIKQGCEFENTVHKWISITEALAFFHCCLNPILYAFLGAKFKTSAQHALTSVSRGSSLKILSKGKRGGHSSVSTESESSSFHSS
UniProt P05771, sequence (whole entry, looked up): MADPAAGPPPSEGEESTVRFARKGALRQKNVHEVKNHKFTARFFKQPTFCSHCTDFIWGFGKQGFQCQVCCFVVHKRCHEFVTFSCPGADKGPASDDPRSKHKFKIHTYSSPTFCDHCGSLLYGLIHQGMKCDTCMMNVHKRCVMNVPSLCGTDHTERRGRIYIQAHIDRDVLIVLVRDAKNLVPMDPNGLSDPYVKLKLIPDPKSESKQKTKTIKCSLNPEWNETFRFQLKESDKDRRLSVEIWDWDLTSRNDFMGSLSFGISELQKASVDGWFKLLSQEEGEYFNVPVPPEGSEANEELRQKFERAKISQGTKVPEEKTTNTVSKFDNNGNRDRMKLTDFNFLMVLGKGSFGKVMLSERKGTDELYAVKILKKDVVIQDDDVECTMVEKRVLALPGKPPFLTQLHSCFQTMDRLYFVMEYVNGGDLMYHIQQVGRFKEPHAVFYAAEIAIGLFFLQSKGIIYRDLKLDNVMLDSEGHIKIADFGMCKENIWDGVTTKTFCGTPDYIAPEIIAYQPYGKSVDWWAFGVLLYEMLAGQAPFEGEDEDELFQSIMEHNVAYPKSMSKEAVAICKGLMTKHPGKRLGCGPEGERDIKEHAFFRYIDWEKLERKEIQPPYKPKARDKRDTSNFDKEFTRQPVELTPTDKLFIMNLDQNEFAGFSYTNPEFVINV
UniProt O15151, sequence (whole entry, looked up): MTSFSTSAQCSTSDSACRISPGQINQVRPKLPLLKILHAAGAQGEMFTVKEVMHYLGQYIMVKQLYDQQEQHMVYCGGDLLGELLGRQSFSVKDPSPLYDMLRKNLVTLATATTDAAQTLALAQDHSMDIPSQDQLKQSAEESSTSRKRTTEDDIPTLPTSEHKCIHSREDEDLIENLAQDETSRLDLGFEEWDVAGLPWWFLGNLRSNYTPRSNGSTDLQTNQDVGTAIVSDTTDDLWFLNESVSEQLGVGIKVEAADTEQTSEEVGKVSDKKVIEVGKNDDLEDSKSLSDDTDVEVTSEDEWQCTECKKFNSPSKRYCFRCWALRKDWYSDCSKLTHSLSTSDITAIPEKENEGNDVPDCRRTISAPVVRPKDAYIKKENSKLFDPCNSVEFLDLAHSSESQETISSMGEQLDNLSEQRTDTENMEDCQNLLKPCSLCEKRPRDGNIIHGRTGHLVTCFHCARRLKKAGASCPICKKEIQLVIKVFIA
UniProt P51686, sequence (whole entry, looked up): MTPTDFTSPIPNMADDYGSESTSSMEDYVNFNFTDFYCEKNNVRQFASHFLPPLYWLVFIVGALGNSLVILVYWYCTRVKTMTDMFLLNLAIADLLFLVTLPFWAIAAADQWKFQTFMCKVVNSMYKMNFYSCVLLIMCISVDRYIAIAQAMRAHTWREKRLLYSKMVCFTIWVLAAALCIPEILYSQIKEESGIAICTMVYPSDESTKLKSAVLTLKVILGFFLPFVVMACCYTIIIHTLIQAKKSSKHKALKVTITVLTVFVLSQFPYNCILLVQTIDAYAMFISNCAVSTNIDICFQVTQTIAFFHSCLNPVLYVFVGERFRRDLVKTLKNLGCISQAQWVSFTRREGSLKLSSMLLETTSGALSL
UniProt Q99571, sequence (whole entry, looked up): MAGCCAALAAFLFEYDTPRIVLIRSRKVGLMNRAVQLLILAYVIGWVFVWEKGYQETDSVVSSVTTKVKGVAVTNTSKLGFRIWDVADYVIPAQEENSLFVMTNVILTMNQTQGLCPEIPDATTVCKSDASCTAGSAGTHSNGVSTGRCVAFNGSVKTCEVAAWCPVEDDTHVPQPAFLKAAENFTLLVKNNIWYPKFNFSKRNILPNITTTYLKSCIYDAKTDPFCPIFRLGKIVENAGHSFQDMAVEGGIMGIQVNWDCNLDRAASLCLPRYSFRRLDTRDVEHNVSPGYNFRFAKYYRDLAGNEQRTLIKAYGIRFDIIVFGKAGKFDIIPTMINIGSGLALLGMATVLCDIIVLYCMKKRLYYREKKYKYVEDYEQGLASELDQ

| Compound | target | test | test system | setting | inhibition |
| --- | --- | --- | --- | --- | --- |
| CC(=O)N[C@H](C(=O)N[C@@H](CO)C(=O)N[C@@H](Cc1ccccc1)C(=O)N[C@H]1CCCCNC(=N)NCCCN(C)CCCNC(=N)NCCCC[C@@H](C(=O)N2CCC[C@H]2C(N)=O)NC(=O)[C@H](CC(C)C)NC(=O)[C@H](CC(C)C)NC(=O)[C@H](C)NC(=O)[C@H](Cc2c[nH]c3ccccc23)NC(=O)[C@H](Cc2ccc(O)cc2)NC(=O)[C@H](CCC(=O)O)NC1=O)[C@@H](C)O | Protein Mdm4 (MDM4, Homo sapiens, UniProt O15151) | protein-protein interaction, inhibitor, TR-FRET | – | 0.1 µM | 96% |
| C[Si]1(C[C@H](CN)CC(=O)O)CCCC1 | kainate receptor, rat | binding, radioligand binding | – | 70 µM, together with: [3H]kainic acid | 2% |
| CCc1noc(CN(C)Cc2cn(-c3ccccc3)nc2-c2ccc(Cl)cc2)n1 | C-X-C chemokine receptor type 4 (CXCR4, Homo sapiens, UniProt P61073) | arrestin recruitment, DiscoverX arrestin | – | 30 µM | 62% and 67% |
| Cc1ccc(CNC(=O)[C@H](CCc2ccccc2)NC(=O)[C@H](CCc2ccccc2)NC(=O)Cc2cccc(Oc3ccccc3)c2)cc1 | F2 | enzyme activity, inhibitor | – | 100 µM | 12% |
| C=CS(=O)(=O)Nc1ccc2nc(NCCCCCN(C)C)nc(NCCCCCCN(C)C)c2c1 | SETDB1 triple Tudor domain | – | – | 100 µM | 129% |
| CN(Cc1ccc(/C=C/C(=O)NO)cc1)CC12CC3CC(CC(C3)C1)C2 | human VPAC1 receptor | agonist radioligand binding | – | 0.05 µM | -9% |
| O=C(CN1CCO[C@@H](COc2cccc(Cl)c2)C1)N1CCc2ccccc21 | HTR1B | radioligand binding | – | concentration not given, together with: [3H]5-CT | 10.7% |
| Cc1nc2c(F)cc(-c3nc(Nc4ccc(CNC(=O)CCCCCCC(=O)NO)cc4)ncc3F)cc2n1C(C)C | Phosphatidylinositol 4,5-bisphosphate 3-kinase catalytic subunit beta isoform, with p85 alpha (Pik3cb, Mus musculus, UniProt Q8BTI9) | enzyme activity | – | 1 µM, p110β/p85α)(m mouse | 1% |
| O=[N+]([O-])c1ccc(Cn2cc(Cn3cc(CO)nn3)nn2)cc1 | Cytohesin-3, PH domain (Cyth3, Mus musculus, UniProt O08967) | PIP3 binding to PH domain, SPR | – | 200 µM | 64 ± 11% |
| Cc1ccc(N(O)/N=N/c2ccc(S(=O)(=O)Nc3nccs3)cc2)cc1 | AMY2 | enzyme activity, inhibitor | – | 120 µg/mL | 21.1% |
| N#Cc1ccc(NC(=O)Nc2cccc(-c3ccccc3)c2)cc1 | SRPK3 | binding, KINOMEscan competitive binding | – | concentration not given | 52% |
| CC1CCN(C(=O)c2cccc(NC(=O)Nc3ccc([N+](=O)[O-])cc3)c2)CC1 | Penicillin-binding protein 4 (Staphylococcus aureus, UniProt P72355) | Bocillin-FL binding, fluorescence polarization | – | 50 µM, 1 µM PBP4 | 81.4 ± 9.2% |
| CCCCCCCCCCCCNC(=S)NCCCC[C@H](NC(=O)OCc1ccccc1)C(=O)N1CCC[C@H]1C(=O)N[C@@H](CCCNC(=N)N)C(N)=O | SIRT3 | enzyme activity, inhibitor | – | 10 µM | < 5% |
| C[C@H](NC(=O)[C@H](CC(=O)NCC(C)(C)C)NC(=O)C(=O)c1c[nH]c2ccccc12)C(=O)NCc1ccc(F)cc1F | chymotrypsin | enzyme activity, inhibitor | – | 100 µM | 36% |
| COc1ccc(C2CC(=O)c3c(O)c(Br)c(O)c(Br)c3O2)cc1O (centres unmarked) | AMY2 | enzyme activity, inhibitor | – | 50 µM, 30 min | 40% |
| C=C(NC(=O)[C@H](CCCCNC(=S)NCCCCCCCCCCCC)NC(=O)OCc1ccccc1)C(=O)N[C@@H](CCCNC(=N)N)C(N)=O | SIRT1 | enzyme activity, inhibitor | – | 1 µM | 77% |
| CN(C)C/C=C/C(=O)Nc1ccc2nc(NCCCCCN(C)C)nc(NCCCCCCN(C)C)c2c1 | Histone-lysine N-methyltransferase EHMT2 (EHMT2, Homo sapiens, UniProt Q96KQ7) | enzyme activity, inhibitor, radiometric | – | 50 µM | 88% |
| CCCCCCCCCCCCNC(=S)NCCCC[C@H](NC(=O)OCc1ccccc1)C(=O)N[C@@H](CCC(=O)O)C(=O)N[C@@H](CCCNC(=N)N)C(N)=O | SIRT1 | enzyme activity, inhibitor | – | 1 µM | 56% |
| CC(C)(C)CNC(=O)C[C@H](NC(=O)CCc1ccccc1)C(=O)N[C@@H](Cc1cccnc1)C(=O)NCc1ccccc1Cl | chymotrypsin | enzyme activity, inhibitor | – | 100 µM | 0% |
| Cc1cccc(O[C@H]2CCC[C@@H](C(C)CNCc3ccncc3)C2)c1 (relative stereo) | Protein kinase C beta type, isoform beta-II (PRKCB, Homo sapiens, UniProt P05771) | kinome profiling | – | 1 µM | 1% |
| O=C1CO[C@H](CNC(=O)C2(c3ccc(Cl)cc3)CC2)CN1C1Cc2ccccc2C1 | C-C chemokine receptor type 9 (CCR9, Homo sapiens, UniProt P51686) | β-arrestin recruitment, antagonist | – | 1 µM | 2% |
| COc1ccc2c(c1)C(CC(=O)NC(C(=O)NC(CCc1ccccc1)C(=O)NCc1ccc(C)cc1)C(C)O)CC2=O (centres unmarked) | F2 | enzyme activity, inhibitor | – | 100 µM | 12% |

| Compound | target | test | test system | setting | inhibition |
| --- | --- | --- | --- | --- | --- |
| O=c1cc(-c2ccccc2)oc2c(Br)c(O)c(Br)c(O)c12 | AMY2 | enzyme activity, inhibitor | – | 50 µM, together with: CNP-G3 substrate | 11.7 ± 3.47% |
| O=C(NC1CCC1)[C@H](Cc1c[nH]c2ccccc12)NC(=O)[C@H](CCCCNC(=S)NCCc1noc(=O)[nH]1)NS(=O)(=O)c1cccc(F)c1 | SIRT3 | deacylase activity | – | 1 µM, together with: NAD+ 500 µM | < 0% |
| CN(C)CCCCCCNc1nc(NCCCCCN(C)C)nc2ccc(NC(=O)CCl)cc12 | SETDB1 triple Tudor domain | – | – | 33.33 µM | 104% |
| C[Si](C)(C)C[C@H](CN)CC(=O)O | AMPA receptor, rat | binding, radioligand binding | – | 250 µM, together with: [3H]AMPA | 5% |
| O=C(NC1CCC1)[C@H](Cc1c[nH]c2ccccc12)NC(=O)[C@H](CCCCNC(=S)Nc1ccc(F)c(O)c1F)NS(=O)(=O)c1cccc(F)c1 | SIRT1 | enzyme activity, inhibitor | – | 30 µM | 78% |
| C[C@H](NC(=O)[C@H](CC(=O)NCC(C)(C)C)NC(=O)CCc1ccccc1)C(=O)NCc1ccccc1Cl | chymotrypsin | enzyme activity, inhibitor | – | 100 µM | 2% |
| O=C1CC(c2ccccc2)Oc2c(Br)c(O)c(Br)c(O)c21 (centres unmarked) | AMY2 | enzyme activity, inhibitor | – | 50 µM, 30 min | 50.4% |
| O=C1c2sc(-c3ccc(N4CCC(F)C4)nc3F)nc2CCN1c1cccnc1 (centres unmarked) | PCP site | radioligand binding | – | 1 µM, together with: antagonist radioligand | 11% |
| C[C@@H](O)[C@H](NC(=O)c1ccc(OCc2ccccc2)cc1)C(=O)N[C@@H](CCc1ccccc1)C(=O)NCc1ccccc1Cl | trypsin | enzyme activity, inhibitor | – | 100 µM | 1% |
| O=C1c2sc(-c3ccc(N4CCC(CO)CC4)nc3F)nc2CCN1c1cccnc1 | Sodium-dependent dopamine transporter (SLC6A3, Homo sapiens, UniProt Q01959) | ligand displacement, radioligand | – | 1 µM | 12% |
| Cc1ccc(CN(C)C(=O)C(CCc2ccccc2)NC(=O)C(NC(=O)c2ccc(OCc3ccccc3)cc2)C(C)O)cc1 (centres unmarked) | trypsin | enzyme activity, inhibitor | – | 100 µM | 2% |
| N#Cc1c(Nc2ccccc2C(F)(F)F)s[nH]c1=O | SIRT1 | enzyme activity, inhibitor | – | 10 µM | 13% |
| CC1Cc2ccccc2N1C(=O)CN1CCN(c2ccccc2)CC1 (centres unmarked) | 5-hydroxytryptamine receptor 1E (HTR1E, Homo sapiens, UniProt P28566) | radioligand binding | – | concentration not given, together with: [3H]5-HT | -2.8% |
| Cc1cc(C)nc(SCC(=O)Nc2ncc(Cc3cccc4ccccc34)s2)n1 | SIRT3 | enzyme activity, inhibitor | – | 10 µM | < 5% |
| C=CC(=O)Nc1cccc(-c2cnc3[nH]cc(C(=O)NC(C)(C)C)c3n2)c1 | NDRG1 | – | – | 0.1 µM | 3% and 4% |
| Brc1ccccc1-c1nnc(CSc2nnnn2-c2ccccc2)o1 | HTR1B | ligand displacement, radioligand | – | 10 µM | 5% |
| Cc1ccc(CNC(=O)[C@H](CCc2ccccc2)NC(=O)[C@H](CC(=O)NCC(C)(C)C)NC(=O)c2ccc(OCc3ccccc3)cc2)cc1 | chymotrypsin | enzyme activity, inhibitor | – | 100 µM | -4% |
| CC(=O)C12NC(C)(C)CC1(C)C(=O)C1=C2c2c(c3c4n2C(C)(C)CC2=C4C4(CC(C)(C)NC(C)(C4)C2=O)CC3(C)C)C(=O)C(C)(C)N1 (single isomer, unassigned; (-)) | P2X purinoceptor 4 (P2RX4, Homo sapiens, UniProt Q99571) | ion current, antagonist, whole-cell patch clamp | HEK293T | 10 µM | 7.7 ± 0.02% |
| O=C(Nc1ccccc1)Nc1ccc(C(F)(F)F)cc1 | SRPK3 | binding, KINOMEscan competitive binding | – | concentration not given | 61% |
| C/C=C/C(=O)Nc1ccc2nc(NCCCCCN(C)C)nc(NCCCCCCN(C)C)c2c1 | Histone-lysine N-methyltransferase SETDB1 (SETDB1, Homo sapiens, UniProt Q15047) | enzyme activity, inhibitor, radiometric | – | 50 µM | 15% |
| CCCCCCCCCCCCNC(=S)NCCCC[C@H](NC(=O)OCc1ccccc1)C(=O)N[C@@H](Cc1c[nH]c2ccccc12)C(=O)N[C@@H](CC(C)C)C(N)=O | SIRT3 | enzyme activity, inhibitor | – | 10 µM | 18% |
| CSCC[C@H](NC(=O)[C@H](Cc1ccc(O)cc1)NC(=O)[C@H](Cc1c[nH]c2ccccc12)NC(=O)[C@H](C)NC(=O)[C@H](Cc1c[nH]c2ccccc12)NC(=O)[C@H](Cc1c[nH]c2ccccc12)NC(=O)[C@H](CCCCN)NC(C)=O)C(N)=O | Programmed cell death 1 ligand 1, with PD-1 (CD274, Homo sapiens, UniProt Q9NZQ7) | PD-1/PD-L1 binding, ELISA | – | 10 µM | 34.7 ± 11.4% |

Repeated from above:
| Compound | target | test | test system | setting | inhibition |
| --- | --- | --- | --- | --- | --- |
| O=c1cc(-c2ccccc2)oc2c(Br)c(O)c(Br)c(O)c12 | AMY2 | enzyme activity, inhibitor | – | 50 µM, together with: CNP-G3 substrate | 11.7 ± 3.47% |
| O=C(NC1CCC1)[C@H](Cc1c[nH]c2ccccc12)NC(=O)[C@H](CCCCNC(=S)NCCc1noc(=O)[nH]1)NS(=O)(=O)c1cccc(F)c1 | SIRT3 | deacylase activity | – | 1 µM, together with: NAD+ 500 µM | < 0% |
| CN(C)CCCCCCNc1nc(NCCCCCN(C)C)nc2ccc(NC(=O)CCl)cc12 | SETDB1 triple Tudor domain | – | – | 33.33 µM | 104% |
| C[Si](C)(C)C[C@H](CN)CC(=O)O | AMPA receptor, rat | binding, radioligand binding | – | 250 µM, together with: [3H]AMPA | 5% |
| O=C(NC1CCC1)[C@H](Cc1c[nH]c2ccccc12)NC(=O)[C@H](CCCCNC(=S)Nc1ccc(F)c(O)c1F)NS(=O)(=O)c1cccc(F)c1 | SIRT1 | enzyme activity, inhibitor | – | 30 µM | 78% |
| C[C@H](NC(=O)[C@H](CC(=O)NCC(C)(C)C)NC(=O)CCc1ccccc1)C(=O)NCc1ccccc1Cl | chymotrypsin | enzyme activity, inhibitor | – | 100 µM | 2% |
| O=C1CC(c2ccccc2)Oc2c(Br)c(O)c(Br)c(O)c21 (centres unmarked) | AMY2 | enzyme activity, inhibitor | – | 50 µM, 30 min | 50.4% |
